Measurements of several laboratories.
Cell line: NCI-H1975

| Structure (SMILES) | assay | setting | measurement | value |
| --- | --- | --- | --- | --- |
| CCCCn1cnc2ccc(-c3ccc(NC(=O)CC)nc3)cc2c1=O | cell growth or viability, CCK-8 | 72 h | IC50 | 2.35 µM |
| CCOc1cncc(-c2ccc(NC(=O)C3(c4ccnc(NS(=O)(=O)C5CC5)n4)CCOCC3)nc2)n1 | cell growth or viability, ATP luminescence | 72 h | IC50 | 0.181 µM |
| CC(C)c1ccc(N(C)c2ccc3c(c2)OCC[C@H]3CNc2cnccc2C(=O)O)cc1 | cell growth or viability, ATP luminescence | 7 days | IC50 | 0.0348 µM |
| C=CC(=O)Nc1cc(Nc2nccc(-c3c(-c4cccc5ccccc45)n(C)c4ccccc34)n2)c(OC)cc1N(C)CCN(C)C | cell growth or viability, MTT | 0.5 µM, 72 h | inhibition | 67.8% |
| CNS(=O)(=O)Nc1nccc(Cc2c(C)c3ccc(Oc4ncccc4F)cc3oc2=O)c1F | cell viability | 7 days | IC50 | > 1 µM |
| C=CC(=O)N1CCc2ccc(-n3c(=O)ccc4cnc5ccc(-c6cnn(C)c6)cc5c43)cc21 | cell growth or viability |  | IC50 | 1.69 µM |
| C=CC(=O)Nc1cc(Nc2nccc(-c3c(-c4ccc(-c5ccccn5)cc4)n(C)c4ccccc34)n2)c(OC)cc1N(C)CCN(C)C | cell growth or viability, MTT | 0.5 µM, 72 h | inhibition | 56.8% |
| O=C(NCc1cc(F)cc(F)c1)[C@@]1(O)CCN(c2ccc3[nH]ccc3c2)C1=O | cell growth or viability |  | IC50 | 16 µM |

Repeated from above:
| Structure (SMILES) | assay | setting | measurement | value |
| --- | --- | --- | --- | --- |
| C=CC(=O)Nc1cc(Nc2nccc(-c3c(-c4ccc(-c5ccccn5)cc4)n(C)c4ccccc34)n2)c(OC)cc1N(C)CCN(C)C | cell growth or viability, MTT | 0.5 µM, 72 h | inhibition | 56.8% |
